{"data": "Experimental data gathered from unrelated publications", "note": "A part holds a random share of what one study measured. “And” joins repeats or separate records; there may be more than shown.", "sequence of UniProt Q92918 (whole entry, looked up)": "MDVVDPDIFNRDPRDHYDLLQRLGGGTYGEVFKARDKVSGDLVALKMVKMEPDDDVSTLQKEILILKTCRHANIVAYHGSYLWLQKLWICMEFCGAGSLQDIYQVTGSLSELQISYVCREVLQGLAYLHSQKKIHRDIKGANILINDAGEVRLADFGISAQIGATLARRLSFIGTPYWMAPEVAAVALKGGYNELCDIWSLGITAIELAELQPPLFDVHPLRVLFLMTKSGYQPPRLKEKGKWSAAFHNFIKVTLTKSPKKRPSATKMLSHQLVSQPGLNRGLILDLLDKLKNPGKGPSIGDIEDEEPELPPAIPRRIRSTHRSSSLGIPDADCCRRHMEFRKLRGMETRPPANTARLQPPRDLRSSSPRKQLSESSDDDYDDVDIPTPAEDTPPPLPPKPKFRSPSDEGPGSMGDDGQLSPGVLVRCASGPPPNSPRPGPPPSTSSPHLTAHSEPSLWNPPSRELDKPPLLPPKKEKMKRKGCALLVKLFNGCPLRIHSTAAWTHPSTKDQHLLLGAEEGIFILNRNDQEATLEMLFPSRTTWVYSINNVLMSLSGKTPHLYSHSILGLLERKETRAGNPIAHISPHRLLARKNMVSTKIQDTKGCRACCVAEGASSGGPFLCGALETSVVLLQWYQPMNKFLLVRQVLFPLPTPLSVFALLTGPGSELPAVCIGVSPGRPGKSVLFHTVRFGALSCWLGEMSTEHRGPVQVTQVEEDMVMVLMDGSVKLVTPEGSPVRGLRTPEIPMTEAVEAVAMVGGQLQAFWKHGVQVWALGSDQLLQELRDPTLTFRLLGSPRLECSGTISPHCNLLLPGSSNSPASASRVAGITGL", "sequence of UniProt Q9BVS4 (whole entry, looked up)": "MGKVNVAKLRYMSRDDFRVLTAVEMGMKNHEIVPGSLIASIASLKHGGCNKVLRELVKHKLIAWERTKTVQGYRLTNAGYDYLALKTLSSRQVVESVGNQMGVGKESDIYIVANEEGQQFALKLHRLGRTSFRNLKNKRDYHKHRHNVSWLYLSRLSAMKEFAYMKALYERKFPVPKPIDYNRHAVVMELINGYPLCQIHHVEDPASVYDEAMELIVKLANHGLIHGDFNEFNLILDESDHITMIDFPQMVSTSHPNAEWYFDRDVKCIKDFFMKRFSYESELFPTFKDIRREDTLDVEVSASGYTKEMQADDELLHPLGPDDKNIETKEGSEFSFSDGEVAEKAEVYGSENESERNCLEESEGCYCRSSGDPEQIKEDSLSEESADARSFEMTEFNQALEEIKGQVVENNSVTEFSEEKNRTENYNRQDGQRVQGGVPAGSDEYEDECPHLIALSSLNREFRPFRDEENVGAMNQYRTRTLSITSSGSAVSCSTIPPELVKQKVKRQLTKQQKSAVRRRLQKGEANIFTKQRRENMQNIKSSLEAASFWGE", "sequence of UniProt Q12866 (whole entry, looked up)": "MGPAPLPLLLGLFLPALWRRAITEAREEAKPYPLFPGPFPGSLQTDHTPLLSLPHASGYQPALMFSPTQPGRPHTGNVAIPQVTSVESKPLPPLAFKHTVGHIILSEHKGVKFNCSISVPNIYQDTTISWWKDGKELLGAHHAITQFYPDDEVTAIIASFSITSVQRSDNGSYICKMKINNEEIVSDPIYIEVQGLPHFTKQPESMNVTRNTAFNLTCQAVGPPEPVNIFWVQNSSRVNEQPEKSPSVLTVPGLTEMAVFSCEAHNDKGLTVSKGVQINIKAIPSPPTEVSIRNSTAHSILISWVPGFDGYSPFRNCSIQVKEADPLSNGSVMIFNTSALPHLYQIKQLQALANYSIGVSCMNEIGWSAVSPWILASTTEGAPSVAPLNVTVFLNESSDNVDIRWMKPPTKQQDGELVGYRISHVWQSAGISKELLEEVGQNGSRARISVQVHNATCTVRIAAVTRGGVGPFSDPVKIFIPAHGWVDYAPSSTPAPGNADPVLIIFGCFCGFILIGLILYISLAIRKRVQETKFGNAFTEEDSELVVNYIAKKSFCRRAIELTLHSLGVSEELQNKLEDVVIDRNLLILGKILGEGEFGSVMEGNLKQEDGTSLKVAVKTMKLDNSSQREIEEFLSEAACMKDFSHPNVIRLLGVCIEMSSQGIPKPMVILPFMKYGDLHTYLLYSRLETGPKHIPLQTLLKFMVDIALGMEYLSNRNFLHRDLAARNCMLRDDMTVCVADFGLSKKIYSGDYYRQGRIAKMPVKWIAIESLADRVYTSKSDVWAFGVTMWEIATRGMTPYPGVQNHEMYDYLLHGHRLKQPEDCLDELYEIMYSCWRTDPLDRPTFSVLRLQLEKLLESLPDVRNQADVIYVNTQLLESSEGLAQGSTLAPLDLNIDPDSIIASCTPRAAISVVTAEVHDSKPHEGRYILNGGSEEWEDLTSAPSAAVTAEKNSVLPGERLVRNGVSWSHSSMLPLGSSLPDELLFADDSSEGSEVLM", "sequence of UniProt P45984 (whole entry, looked up)": "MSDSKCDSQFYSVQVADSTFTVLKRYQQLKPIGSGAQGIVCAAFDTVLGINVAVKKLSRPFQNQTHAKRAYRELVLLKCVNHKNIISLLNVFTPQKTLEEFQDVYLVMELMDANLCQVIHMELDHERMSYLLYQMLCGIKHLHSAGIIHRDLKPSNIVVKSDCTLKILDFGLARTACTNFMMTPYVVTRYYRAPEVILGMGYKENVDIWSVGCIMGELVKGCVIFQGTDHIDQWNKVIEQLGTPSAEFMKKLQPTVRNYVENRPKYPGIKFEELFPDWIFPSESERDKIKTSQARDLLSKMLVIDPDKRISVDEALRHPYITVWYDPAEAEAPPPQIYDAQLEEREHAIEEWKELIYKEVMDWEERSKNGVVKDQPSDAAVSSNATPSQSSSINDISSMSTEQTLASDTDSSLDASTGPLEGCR", "sequence of UniProt P11802 (whole entry, looked up)": "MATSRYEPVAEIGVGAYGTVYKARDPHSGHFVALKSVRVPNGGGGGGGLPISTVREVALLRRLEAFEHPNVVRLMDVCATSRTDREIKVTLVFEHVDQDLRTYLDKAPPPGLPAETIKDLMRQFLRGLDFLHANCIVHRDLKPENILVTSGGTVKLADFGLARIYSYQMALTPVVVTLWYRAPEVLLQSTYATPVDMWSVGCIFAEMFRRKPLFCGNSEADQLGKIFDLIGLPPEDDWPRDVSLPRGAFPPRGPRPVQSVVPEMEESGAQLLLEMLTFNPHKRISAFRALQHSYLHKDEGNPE", "sequence of UniProt P07948 (whole entry, looked up)": "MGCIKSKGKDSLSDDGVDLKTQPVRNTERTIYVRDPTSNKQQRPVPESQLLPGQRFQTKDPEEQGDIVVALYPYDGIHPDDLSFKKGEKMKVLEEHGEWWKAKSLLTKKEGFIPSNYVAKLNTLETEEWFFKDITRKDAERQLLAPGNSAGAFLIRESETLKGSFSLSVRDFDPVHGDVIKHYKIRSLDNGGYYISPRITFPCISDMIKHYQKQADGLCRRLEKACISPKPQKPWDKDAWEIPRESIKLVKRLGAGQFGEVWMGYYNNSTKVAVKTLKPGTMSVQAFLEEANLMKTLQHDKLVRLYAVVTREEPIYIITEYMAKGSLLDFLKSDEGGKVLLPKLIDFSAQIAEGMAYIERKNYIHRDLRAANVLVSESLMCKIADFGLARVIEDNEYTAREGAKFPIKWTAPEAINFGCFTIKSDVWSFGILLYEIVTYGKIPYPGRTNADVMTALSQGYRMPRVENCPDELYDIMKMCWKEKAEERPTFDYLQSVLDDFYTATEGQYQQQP", "sequence of UniProt Q9UIK4 (whole entry, looked up)": "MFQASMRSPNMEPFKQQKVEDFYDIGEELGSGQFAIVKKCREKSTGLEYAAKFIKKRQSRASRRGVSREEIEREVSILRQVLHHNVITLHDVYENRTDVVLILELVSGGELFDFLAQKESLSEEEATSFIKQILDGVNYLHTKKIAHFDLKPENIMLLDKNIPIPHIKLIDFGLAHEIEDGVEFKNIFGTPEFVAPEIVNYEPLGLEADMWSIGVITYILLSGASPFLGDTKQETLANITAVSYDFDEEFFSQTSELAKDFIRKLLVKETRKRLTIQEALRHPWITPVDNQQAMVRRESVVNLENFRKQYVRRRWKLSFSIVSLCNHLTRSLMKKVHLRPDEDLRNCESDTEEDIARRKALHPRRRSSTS", "sequence of UniProt P05771 (whole entry, looked up)": "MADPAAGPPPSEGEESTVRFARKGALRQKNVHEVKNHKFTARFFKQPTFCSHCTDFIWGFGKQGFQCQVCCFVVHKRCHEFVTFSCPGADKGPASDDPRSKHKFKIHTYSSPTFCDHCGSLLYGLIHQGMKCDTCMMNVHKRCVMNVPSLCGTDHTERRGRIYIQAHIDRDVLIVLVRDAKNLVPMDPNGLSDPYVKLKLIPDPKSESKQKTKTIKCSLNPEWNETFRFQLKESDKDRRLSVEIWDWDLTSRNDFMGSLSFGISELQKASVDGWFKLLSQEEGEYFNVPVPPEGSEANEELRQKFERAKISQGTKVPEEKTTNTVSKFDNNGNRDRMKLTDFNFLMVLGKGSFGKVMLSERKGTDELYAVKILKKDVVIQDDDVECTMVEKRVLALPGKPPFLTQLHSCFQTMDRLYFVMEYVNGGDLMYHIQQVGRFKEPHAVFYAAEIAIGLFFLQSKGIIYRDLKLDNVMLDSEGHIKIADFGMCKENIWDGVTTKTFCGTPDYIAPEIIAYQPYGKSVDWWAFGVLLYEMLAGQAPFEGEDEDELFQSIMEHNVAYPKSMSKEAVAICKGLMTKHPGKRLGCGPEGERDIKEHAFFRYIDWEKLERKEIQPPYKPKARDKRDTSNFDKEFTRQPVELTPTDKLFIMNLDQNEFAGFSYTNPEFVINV", "sequence of UniProt Q00535 (whole entry, looked up)": "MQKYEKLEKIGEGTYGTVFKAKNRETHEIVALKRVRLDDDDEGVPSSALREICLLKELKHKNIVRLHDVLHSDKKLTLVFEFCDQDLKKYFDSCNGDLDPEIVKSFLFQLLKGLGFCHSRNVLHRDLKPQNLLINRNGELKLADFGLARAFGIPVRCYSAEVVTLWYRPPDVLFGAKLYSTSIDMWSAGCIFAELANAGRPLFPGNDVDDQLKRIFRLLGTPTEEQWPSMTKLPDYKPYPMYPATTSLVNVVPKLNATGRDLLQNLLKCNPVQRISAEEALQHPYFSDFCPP"}
{"data": "Series 1", "SMILES": "O=C(O)[C@H]1[C@H](Cn2nnc3ccccc3c2=O)CC[C@@H]1C(=O)c1ccc(OCCC2CCOCC2)cc1", "read-out": "cell-free assay", "technique": "competition with immobilised ligand", "tested at": "1 µM"}
{"target": "GRK4 (Homo sapiens, UniProt P32298)", "remaining binding": "82%"}
{"target": "EIF2AK1 (Homo sapiens, UniProt Q9BQI3)", "remaining binding": "78%"}
{"target": "Tyrosine-protein kinase JAK3, JH1 (JAK3, Homo sapiens, UniProt P52333)", "remaining binding": "100%"}
{"target": "FLT3 (Homo sapiens, UniProt P36888, K663Q)", "remaining binding": "100%"}
{"target": "PIK3CA (Homo sapiens, UniProt P42336, H1047Y)", "remaining binding": "88%"}
{"target": "NEK10 (Homo sapiens, UniProt Q6ZWH5)", "remaining binding": "69%"}
{"target": "FLT3 (Homo sapiens, UniProt P36888, D835V/ITD)", "remaining binding": "87%"}
{"target": "Ribosomal protein S6 kinase alpha-3, C-terminal kinase domain (RPS6KA3, Homo sapiens, UniProt P51812)", "remaining binding": "83%"}
{"target": "LATS2 (Homo sapiens, UniProt Q9NRM7)", "remaining binding": "100%"}
{"target": "HASPIN (Homo sapiens, UniProt Q8TF76)", "remaining binding": "84%"}
{"target": "RIOK2 (Homo sapiens, UniProt Q9BVS4)", "remaining binding": "100%"}
{"target": "MERTK (Homo sapiens, UniProt Q12866)", "remaining binding": "61%"}
{"target": "MAP4K1 (Homo sapiens, UniProt Q92918)", "remaining binding": "87%"}
{"data": "Series 2", "SMILES": "COc1cc(C(=O)OCCCN2CCCN(CCCOC(=O)c3cc(OC)c(OC)c(OC)c3)CC2)cc(OC)c1OC", "technique": "von Frey test"}
{"host": "mouse, CFA inflammatory pain", "route": "subcutaneous", "dose": "10 mg/kg", "time": "5 h post-dose", "notes": "second injection, day 3", "paw withdrawal threshold": "0.32 g and 0.23 g and 0.36 g and 0.13 g"}
{"host": "mouse, CFA inflammatory pain", "route": "intravenous", "dose": "dose not given", "time": "24 h post-dose", "notes": "third injection, day 5", "paw withdrawal threshold": "0.19 g and 0.32 g and 0.23 g and 0.4 g"}
{"read-out": "mechanical pain", "host": "mouse, STZ diabetic neuropathy", "route": "intravenous", "dose": "30 mg/kg", "time": "5 h post-dose", "notes": "first injection, day 8", "paw withdrawal threshold": "0.1 g and 0.03 g and 0.02 g and 0.4 g and 0.23 g"}
{"host": "mouse, CFA inflammatory pain", "route": "intravenous", "dose": "dose not given", "time": "1 h post-dose", "notes": "first injection, day 1", "paw withdrawal threshold": "0.23 g and 0.44 g and 0.32 g"}
{"host": "mouse, CFA inflammatory pain", "route": "intraplantar", "dose": "10 µg", "time": "3 h post-dose", "notes": "day 3 after CFA", "paw withdrawal threshold": "0.19 g and 0.51 g and 0.65 g and 0.44 g"}
{"host": "mouse, CFA inflammatory pain", "route": "intravenous", "dose": "dose not given", "time": "1 h post-dose", "notes": "third injection, day 5", "paw withdrawal threshold": "0.32 g and 0.4 g and 0.29 g and 0.23 g"}
{"read-out": "mechanical pain", "host": "mouse, STZ diabetic neuropathy", "route": "intravenous", "dose": "30 mg/kg", "time": "5 h post-dose", "notes": "third injection", "paw withdrawal threshold": "0.29 g and 0.11 g and 0.13 g"}
{"host": "mouse, CFA inflammatory pain", "route": "intravenous", "dose": "dose not given", "time": "5 h post-dose", "notes": "first injection, day 1", "paw withdrawal threshold": "0.23 g and 0.44 g and 0.32 g"}
{"host": "mouse, CFA inflammatory pain", "route": "subcutaneous", "dose": "10 mg/kg", "time": "1 h post-dose", "notes": "third injection, day 5", "paw withdrawal threshold": "0.32 g and 0.23 g"}
{"host": "mouse, CFA inflammatory pain", "route": "subcutaneous", "dose": "10 mg/kg", "time": "3 h post-dose", "notes": "third injection, day 5", "paw withdrawal threshold": "0.32 g and 0.23 g and 0.4 g"}
{"data": "Series 3", "SMILES": "COc1cc2ncnc(Nc3ccc(O)c(Br)c3)c2cc1OC", "read-out": "enzyme activity", "mode": "inhibitor", "tested at": "0.5 µM", "relative to": "control"}
{"target": "PRKACA (Homo sapiens, UniProt P17612)", "remaining activity [%]": 97.7}
{"target": "STK39 (Homo sapiens, UniProt Q9UEW8)", "remaining activity [%]": 87.4}
{"target": "OXSR1 (Homo sapiens, UniProt O95747)", "remaining activity [%]": 98.8}
{"target": "DAPK2 (Homo sapiens, UniProt Q9UIK4)", "remaining activity [%]": 100}
{"target": "Protein kinase C beta type, isoform beta-I (PRKCB, Homo sapiens, UniProt P05771)", "remaining activity [%]": 96.6}
{"target": "GRK3 (Homo sapiens, UniProt P35626)", "remaining activity [%]": 103}
{"target": "Cyclin-dependent kinase 4, with cyclin D1 (CDK4, Homo sapiens, UniProt P11802)", "remaining activity [%]": 101}
{"target": "TGFBR1 (Homo sapiens, UniProt P36897)", "remaining activity [%]": 97.4}
{"target": "NEK2 (Homo sapiens, UniProt P51955)", "remaining activity [%]": 105}
{"target": "cGMP-dependent protein kinase 1, isoform beta (PRKG1, Homo sapiens, UniProt Q13976)", "remaining activity [%]": 88.9}
{"target": "IKBKE (Homo sapiens, UniProt Q14164)", "remaining activity [%]": 94.6}
{"target": "Cyclin-dependent kinase 5, with p25 (CDK5, Homo sapiens, UniProt Q00535)", "remaining activity [%]": 98.4}
{"target": "DAPK1 (Homo sapiens, UniProt P53355)", "remaining activity [%]": 92}
{"target": "Tyrosine-protein kinase Lyn, isoform B (LYN, Homo sapiens, UniProt P07948)", "remaining activity [%]": 60}
{"target": "CHEK2 (Homo sapiens, UniProt O96017)", "remaining activity [%]": 51}
{"target": "CAMK2D (Homo sapiens, UniProt Q13557)", "remaining activity [%]": 95.7}
{"target": "STK10 (Homo sapiens, UniProt O94804)", "remaining activity [%]": 14.5}
{"target": "TGFBR2 (Homo sapiens, UniProt P37173)", "remaining activity [%]": 105}
{"target": "IKBKB (Homo sapiens, UniProt O14920)", "remaining activity [%]": 88}
{"target": "MAP3K3 (Homo sapiens, UniProt Q99759)", "remaining activity [%]": 82}
{"target": "MAPK9 (Homo sapiens, UniProt P45984)", "remaining activity [%]": 88.4}
{"target": "CAMKK2 (Homo sapiens, UniProt Q96RR4)", "remaining activity [%]": 92.4}
{"data": "Series 4", "host": "mouse", "medium": "microsomes or S9", "tested at": "2 µM", "time": "0.5 h"}
{"Structure (SMILES)": "CCCc1cc(C(=O)N(C)CC2Cc3ccccc3CN2C)[nH]n1 (stereo not drawn)", "remaining compound": "16%"}
{"Structure (SMILES)": "COc1cc(CN2CCN(S(=O)(=O)c3ccc(NC(C)=O)cc3)CC2)cc(OC)c1OC", "remaining compound": "12.7%"}
{"Structure (SMILES)": "COc1cc2c(cc1OC)CCN(C(C)C(=O)NC(C)C)CC2 (stereo not drawn)", "remaining compound": "0.19%"}
{"Structure (SMILES)": "N#Cc1nccnc1NCCc1nc2c(s1)CCCC2", "remaining compound": "0.159%"}
{"Structure (SMILES)": "CC1c2cccn2-c2sc3c(c2CN1C(=O)NC1CCCC1)CCCC3 (stereo not drawn)", "remaining compound": "< 1%"}
{"Structure (SMILES)": "COc1cc(C2CC(=O)Oc3cc4c(c(OC)c32)C(=O)O[C@@H](C)CCCC(=O)CCC/C=C/4)cc2c1OCCO2 (stereo partly drawn)", "remaining compound": "9.22%"}
{"Structure (SMILES)": "Cn1ccc2c(-c3ccc(-c4nnco4)cc3)ccnc21", "remaining compound": "0.249%"}
{"Structure (SMILES)": "CCOc1cc(=O)n2c(c1C(=O)NCc1ccc3c(c1)OCO3)CCCC2", "remaining compound": "58.2%"}
{"Structure (SMILES)": "COc1ccccc1CNC(=O)c1c(OCC(C)C)cc(=O)n2c1CCCCC2", "remaining compound": "1.95%"}
{"note": "Excerpt of the above (series 3):"}
{"target": "STK39 (Homo sapiens, UniProt Q9UEW8)", "remaining activity [%]": 87.4}
{"target": "OXSR1 (Homo sapiens, UniProt O95747)", "remaining activity [%]": 98.8}
{"target": "DAPK2 (Homo sapiens, UniProt Q9UIK4)", "remaining activity [%]": 100}
{"target": "Protein kinase C beta type, isoform beta-I (PRKCB, Homo sapiens, UniProt P05771)", "remaining activity [%]": 96.6}
{"target": "GRK3 (Homo sapiens, UniProt P35626)", "remaining activity [%]": 103}
{"target": "Cyclin-dependent kinase 4, with cyclin D1 (CDK4, Homo sapiens, UniProt P11802)", "remaining activity [%]": 101}
